# Published values collected from several papers.
# Parts stem from different laboratories: compare values within a part only.

# Block 1 — technique: protein binding microarray; molecule type: double-stranded DNA, one strand shown; medium: in vitro; tested at: not given; reference: not given; direction: higher = stronger binding
# Target: Histone acetyltransferase KAT6A, both winged helices, GST fusion (KAT6A, Homo sapiens, UniProt Q92794, residues 1-181)
# Notes: 8-mer, flanks averaged, mean of 2 arrays, mostly near background
# Construct (chain): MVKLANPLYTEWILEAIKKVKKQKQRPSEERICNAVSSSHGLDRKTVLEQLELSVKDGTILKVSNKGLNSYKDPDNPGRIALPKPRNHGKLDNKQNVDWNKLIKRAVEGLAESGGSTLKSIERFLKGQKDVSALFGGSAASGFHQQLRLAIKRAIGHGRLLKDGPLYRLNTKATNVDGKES
Oligonucleotide,E-score
CCGTCGGA,0.325
CGTCCCAA,-0.11
CAATCAAA,-0.0537
ATTATAAC,0.00924
AACCCGTC,0.257
AGTTCCTG,-0.122
CTTCTCTC,-0.101
TACCAATA,-0.134
AAATGGAG,-0.131
ACGTTGTC,-0.166
GGAATATA,-0.01
GATTTCCA,-0.0676
GAATGTTA,0.0335
GCCTGAAC,-0.00482
TAGGCGGA,0.0915
GTCGTCGA,0.0946
CGTGAATA,0.0197
GCCAACGA,-0.0219
ATTACGGC,0.229
ACCGCAAT,0.228
TAACGTCA,-0.0369
CGCGGAGC,0.277

# Block 2 — technique: RNA Bind-n-Seq; molecule type: RNA; medium: in vitro; tested at: 1 µM; notes: whole 134-nt RNA, ends assumed; added: 150 mM KCl; reference: input library; direction: higher = stronger binding
# Target: Ras GTPase-activating protein-binding protein 1, RRM domain (G3BP1, Homo sapiens, UniProt Q13283)
# Sequence of UniProt Q13283 (whole entry, looked up): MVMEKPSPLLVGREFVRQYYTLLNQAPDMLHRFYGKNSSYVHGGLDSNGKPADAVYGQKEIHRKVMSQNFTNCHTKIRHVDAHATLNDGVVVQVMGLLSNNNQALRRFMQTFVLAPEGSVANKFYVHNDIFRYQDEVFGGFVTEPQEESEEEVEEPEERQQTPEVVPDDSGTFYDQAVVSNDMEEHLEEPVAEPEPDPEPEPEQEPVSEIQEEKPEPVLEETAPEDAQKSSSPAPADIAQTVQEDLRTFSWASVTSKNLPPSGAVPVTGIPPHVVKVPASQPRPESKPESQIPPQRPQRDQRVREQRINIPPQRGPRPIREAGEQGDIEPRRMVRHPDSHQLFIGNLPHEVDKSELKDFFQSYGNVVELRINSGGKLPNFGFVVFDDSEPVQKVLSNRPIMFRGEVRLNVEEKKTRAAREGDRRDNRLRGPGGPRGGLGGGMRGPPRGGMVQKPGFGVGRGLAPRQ
# Shared flanks, not repeated: GGGAGUUCUACAGUCCGACGAUC … UGGAAUUCUCGGGUGUCAAGG
Oligonucleotide,log2 enrichment
UAACUUUAGAGGAGGAUCUGAUGGAUAUGGCAGUGGACGUGGAUUUGGGGAUGGCUAUAAUGGGUAUGGAGGAGGACCUGGAGGUGGCAC,-0.161
UGGCCCUGGUGGCAUGCGGGGAGGAAGAGGUGGCCUCAUGGAUCGUGGUGGUCCCGGUGGAAUGAUCAGAGGUGGCCGUGGUGGAGACAG,0.817
GGUGCGGCUCUAUGAGUGGACAACAGAGAAGGAGCUGCGCACUGAGUGCAACCACUACAACAACAUCAUGGCCCUCUACCUGAAGACCAA,-0.125
UGCGAGGUGGAUUUUGUUUAUUUUUUUAGCUCAUUUCCAGGGGUGGGAAUUUUUUUUUAAUAUGUGUCAUGAAUAAAGUUGUUUUUGAAA,0.885
GCAGGAAGUACAAACAAAUGGAAAUGCUUCGGAUAGUGGCAGGGGUGGGGGUUGCUAAGGAAAGGGUGGGAUGGGAGUGGGUAAAGAGUU,0.81
CACAGACAACACGCACCCACACAGACACAGAGGGAAGGGGUUGGGAUGGGGACAGGGUGCACAGCCGGGCGGGGUAGGACCCCAGCCCCU,0.144
CUCAAGUCCUGUGCUACACAUCGUAUGUACCGAAUCGGAAAGGAGGAAAAAGGAAAGUAUUAUGUUACGCCGUUCGGAUCUGCACUUCCA,-0.144
CCUCAAGUCCUGUGCUACACAUCGUAUGUACCGAAUCGGCGGGCGGGGCGGGGAAAGUAUUAUGUUACGCCGUUCGGAUCUGCACUUCCA,-0.154
UUAAGUUGAAGGAGCGCUACCGCAACGUGCUGGACACCAUGUUCGAGCUGCUGCCCCGGAUGGCCAGGUACUGCCAGCCCCCACCCUGGC,-0.424
CCUCAAGUCCUGUGCUACACAUCGUAUGUACCGAAUCGGUGGUGGGGUGGGGAAAGUAUUAUGUUACGCCGUUCGGAUCUGCACUUCCAG,-0.208

# Block 3 — technique: RNA Bind-n-Seq; molecule type: RNA; medium: in vitro; tested at: 365 nM; reference: no-protein control; direction: higher = stronger binding
# Target: RNA binding protein fox-1 homolog 2, RRM domain, GST-SBP tag (RBFOX2, Homo sapiens, UniProt O43251-10, residues 100-194)
# Notes: natural RNA segment, single round, ends assumed
# Shared flanks, not repeated: GGGAGUUCUACAGUCCGACGAUC … UGGAAUUCUCGGGUGCCAA
# Target sequence (chain): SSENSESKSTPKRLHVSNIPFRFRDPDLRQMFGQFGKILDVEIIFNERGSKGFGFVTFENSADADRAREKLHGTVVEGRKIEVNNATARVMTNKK
Oligonucleotide,RBNS enrichment (R)
UGAGUGUCCCGACACCCUCUCGGAUGCAGGGCAGGACCACCCAGCUGGUCAGACUCUGAUGUUGGGUAGCUGGCCUCUGUGGGGAUUGUAAGUGCCCUGAGGCGCUCUGU,1.41
AUUGUAAAAAGUUUUAGUUUUGAUGAGUUGUGAGUUUACCUUGUAUACUGUAGGCACACUUUGCACUGAUAUAUCAUGAGUGAAUAAAUGUCUUGCCUACUCACGUCUCA,1.03
CUAGUGAGUGGAGGCCAGGGAUGCUGCCCUGCCACUGCCAUUGGGCCUCAGAGCUCAGUCUUGCCAAGGUGGAGAAAUUCUGGUCGAAGAGGUUGACCGGUAGACUGAAG,0.564
UGAUCUUAAUUGUGGAGGUGCAACUUGCCAGGAGGGAAGAAACAAUCUAGCACUUGCAGGCAUUCCAGGUAGAAGAGCUUUGCCCGUGCUCCAGCUAGCCUACACUGAUC,0.543
GUGUUCUCAGCCCAGCCCUCCCUGAGAACCCACAUUUGGCUCGUAUGUAUGUGAGCACGUUGGGGUGCGCAUAAGCUAUCACCAUCUUCUUCUCUUCUAUCAUCCAAAUC,0.361
CCCCUGAGAGGAGGUCGAAUGGGUAAAGGAGCAUUUUUUUAUUCAGCAGACUUUCUCUGUGUAUGAGUGUGAAUGAUCAAGUCCUUUGUGAAUAUUUUCAACUAUGUAGG,0.666
UUCCAAGAGAGGACAGCAAGUCCCCUGACACUGCAAAUUUCAUUUGAGCCUAGGGAGCUGGGAAAACAGUUGGGCCUAGUCUGUUUUUGAAUUGCAUUGCAUUGAGUUGU,0.69
UUGUUUGGUUAUUUGUUUGUUUGAUUUUAACUAGAUGACUGUCUUCAGAAUAAUCCUCACAGUUCUGGAAGAUUGAAAAACCAAGUUCACAUGACAAGAACAAACCCGGU,0.665
UUGGGAAGCAGUCGCCUGCCUGGGAAGUGGGUCUGUGUUUUCUCUAACUGCCACAGUGCUAUUUGUUUACCAUCAAAUUGUAUUGGUGUUUCCAGGGCUUGUUGGUACAA,0.276
UAACUGGUUGCACUACCCGUGAAGAAUUCAUGGGACAGCCACUGCUGAGUGACUAACAUGAUGCACAUAACCAAACGGGGCCAAUGGUACAAACUUCACUCAUCAUUUGA,0.289
GACCCAGCUGUCUGGCACUCAAACGGUCUCUGCAGCCACAGUUUUAUCAAGUAUCCUGUAUGUGUUCCUUUGUAAACCGGUACUCAUGAAUGAGGGAAAGUCUGAUGCUA,2.41
CCUCUGUGAGCUGUUCCCUCGCCUGAAUUCAUUGCAUCUUACACCUUGGCAUGCCUUGCUCACAAUACUCAUUAUGCUGUGUGGGAUUUCCUGAUUACUAGAAGCUGACC,28.8

# Block 4 — technique: universal PBM; molecule type: double-stranded DNA, one strand shown; medium: in vitro; tested at: 600 nM; direction: higher = stronger binding
# Target: Sal-like protein 4, full length isoform A (SALL4, Homo sapiens, UniProt Q9UJQ4, residues 1-1053)
# Sequence of UniProt Q9UJQ4 (whole entry, looked up): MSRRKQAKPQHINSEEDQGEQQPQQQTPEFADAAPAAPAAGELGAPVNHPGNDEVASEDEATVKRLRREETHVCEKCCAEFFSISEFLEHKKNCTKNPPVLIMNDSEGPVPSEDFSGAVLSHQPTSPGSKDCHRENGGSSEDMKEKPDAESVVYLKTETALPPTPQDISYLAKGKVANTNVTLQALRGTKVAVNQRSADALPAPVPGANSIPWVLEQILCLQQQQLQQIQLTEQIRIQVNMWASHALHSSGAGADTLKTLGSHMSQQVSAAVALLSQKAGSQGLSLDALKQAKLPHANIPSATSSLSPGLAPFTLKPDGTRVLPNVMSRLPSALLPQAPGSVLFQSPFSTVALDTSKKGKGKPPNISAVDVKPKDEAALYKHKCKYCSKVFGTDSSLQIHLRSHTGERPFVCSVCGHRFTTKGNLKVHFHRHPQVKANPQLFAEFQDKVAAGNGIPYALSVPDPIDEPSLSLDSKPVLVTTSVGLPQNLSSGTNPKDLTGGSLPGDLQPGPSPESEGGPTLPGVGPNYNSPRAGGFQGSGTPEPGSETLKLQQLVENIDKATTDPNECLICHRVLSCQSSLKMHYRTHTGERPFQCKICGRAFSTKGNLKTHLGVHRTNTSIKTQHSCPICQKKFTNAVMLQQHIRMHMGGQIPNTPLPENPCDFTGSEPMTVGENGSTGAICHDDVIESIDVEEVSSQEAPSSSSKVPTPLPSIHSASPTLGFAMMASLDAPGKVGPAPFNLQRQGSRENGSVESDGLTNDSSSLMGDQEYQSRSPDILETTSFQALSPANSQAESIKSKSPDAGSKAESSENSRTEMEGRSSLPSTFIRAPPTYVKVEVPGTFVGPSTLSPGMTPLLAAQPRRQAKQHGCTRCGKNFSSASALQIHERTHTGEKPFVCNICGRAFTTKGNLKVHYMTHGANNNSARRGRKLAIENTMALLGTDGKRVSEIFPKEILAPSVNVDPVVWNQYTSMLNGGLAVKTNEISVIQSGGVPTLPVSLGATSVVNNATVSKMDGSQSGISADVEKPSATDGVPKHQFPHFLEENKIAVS
# Notes: 8-mer, flanks averaged, mean of replicates
Oligonucleotide,E-score
GTGCGCCA,-0.24
TCCCGCCA,-0.165
AGTATCTG,-0.0397
AGCGCCAG,-0.235
CAGTTATG,0.291
ATCTGTAA,0.153
CAAATAAC,0.31
CTGCCATA,0.0497
ACAAAGAG,-0.069
CCGATACA,0.16
CCTGGCCA,-0.263
ACCAGTCC,-0.379
AATCGTCT,0.0172
CAGCATCC,-0.248
CCCCAGTA,-0.196
CACATCTC,0.0475
TATGGGGA,0.0901
ATGCACTA,0.161
TCACGGGA,0.00294
CCGATTTC,-0.0822
AGTTCCGG,-0.187
AGCGATAT,0.263
GTCAGAAA,0.0429
TAACGATA,0.213
GTCTGCGA,-0.137

# Excerpt of the above (block 2):
Oligonucleotide,log2 enrichment
UAACUUUAGAGGAGGAUCUGAUGGAUAUGGCAGUGGACGUGGAUUUGGGGAUGGCUAUAAUGGGUAUGGAGGAGGACCUGGAGGUGGCAC,-0.161
CCUCAAGUCCUGUGCUACACAUCGUAUGUACCGAAUCGGCGGGCGGGGCGGGGAAAGUAUUAUGUUACGCCGUUCGGAUCUGCACUUCCA,-0.154
UUAAGUUGAAGGAGCGCUACCGCAACGUGCUGGACACCAUGUUCGAGCUGCUGCCCCGGAUGGCCAGGUACUGCCAGCCCCCACCCUGGC,-0.424
CCUCAAGUCCUGUGCUACACAUCGUAUGUACCGAAUCGGUGGUGGGGUGGGGAAAGUAUUAUGUUACGCCGUUCGGAUCUGCACUUCCAG,-0.208
GCAGGAAGUACAAACAAAUGGAAAUGCUUCGGAUAGUGGCAGGGGUGGGGGUUGCUAAGGAAAGGGUGGGAUGGGAGUGGGUAAAGAGUU,0.81
CACAGACAACACGCACCCACACAGACACAGAGGGAAGGGGUUGGGAUGGGGACAGGGUGCACAGCCGGGCGGGGUAGGACCCCAGCCCCU,0.144
CUCAAGUCCUGUGCUACACAUCGUAUGUACCGAAUCGGAAAGGAGGAAAAAGGAAAGUAUUAUGUUACGCCGUUCGGAUCUGCACUUCCA,-0.144
